# Assay results collected from several papers.
# A part holds a random share of what one study measured. Substitutions count along the parent as printed.

# Set 1
# Target: CCND3, cyclin fold, Cln2 fusion (human)
# Technique: yeast growth competition, sequencing
# Sample: yeast
# Notes: weak parent motif
# Reference: not given
# Reading: higher = stronger binding
# Starting sequence: CDKN1A docking peptide (human); SKACRRLFGPVDS; partner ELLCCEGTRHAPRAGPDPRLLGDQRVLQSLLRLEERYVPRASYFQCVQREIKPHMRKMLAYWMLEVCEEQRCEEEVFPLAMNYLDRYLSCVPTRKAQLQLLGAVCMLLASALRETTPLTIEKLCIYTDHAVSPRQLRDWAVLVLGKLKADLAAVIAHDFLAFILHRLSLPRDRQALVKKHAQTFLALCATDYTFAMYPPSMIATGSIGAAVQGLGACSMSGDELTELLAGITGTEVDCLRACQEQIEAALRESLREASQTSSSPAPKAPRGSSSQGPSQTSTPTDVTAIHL
Variant,normalised enrichment score
SKACRQLFGPVDS [R6Q],0.141
SKACRRLFKPVDS [G9K],-0.0437
SKACRRLFQPVDS [G9Q],0.287

# Set 2
# Target: Histone acetyltransferase KAT6A, winged helix 2, GST fusion (KAT6A, Homo sapiens, UniProt Q92794, residues 85-181)
# Technique: protein binding microarray
# Molecule type: double-stranded DNA, one strand shown
# Sample: in vitro
# Concentration: not given
# Notes: 8-mer, flanks averaged, mean of 2 arrays, mostly near background
# Reference: not given
# Reading: higher = stronger binding
# Residues (chain): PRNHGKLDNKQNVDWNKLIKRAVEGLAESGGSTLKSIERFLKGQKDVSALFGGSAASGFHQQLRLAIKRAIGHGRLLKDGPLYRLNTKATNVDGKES
Sequence,E-score
GCTGGGTA,0.0396
ATCCGGCG,0.0484
CTCAAAAA,-0.0487
ACTCCTCC,0.0258
AATGGTTC,0.0434

# Set 3
# Target: Fragile X messenger ribonucleoprotein 1, C-terminal low-complexity region (Fmr1, Mus musculus, UniProt P35922)
# Technique: RNA Bind-n-Seq
# Molecule type: RNA
# Sample: in vitro
# Concentration: 200 nM
# Notes: whole 134-nt RNA, ends assumed
# Together with: 150 mM LiCl
# Reference: input library
# Reading: higher = stronger binding
# Library: 7-deaza-guanosine replaces G
# Shared flanks, not repeated: GGGAGUUCUACAGUCCGACGAUC … UGGAAUUCUCGGGUGUCAAGG
Sequence,log2 enrichment
GUCCUGUGCUACACAUCGUAUGUACCGAAUCGGGAGGGAAAAAAAGGGUUUUUUUGGGAAAGUAUUAUGUUACGCCGUUCGGAUCUGCAC,-1.21
AGUCCUGUGCUACACAUCGUAUGUACCGAAUCGGGGAAAAGGAAAAGGGAAAAGGGGAAAGUAUUAUGUUACGCCGUUCGGAUCUGCACU,-0.513
UCAAUGCCGGCUAUGCCCUGGCCCCAGCCACCAGUGCCAACGACAGCGAGCAGCAGAGCCUGUCCAGCGAUGCAGACACCCUGUCCCUCA,0.257
UAACUUUAGAGGAGGAUCUGAUGGAUAUGGCAGUGGACGUGGAAUUGGGGAUGGCUAUAAUGGGUAUGGAGGAGGACCUGGAGGUGGCAA,-0.261
GAGGAGACUCUGCGCAGAGCACUUUGGGUCCGGAGGGCGAGACUCCGGCGGAAGCAUUCCCGGGCGGGUGACCCAGCACGGUCCCUCUUG,-1.79
UGGGAGGUGGAUUUUGUUUAUUUUUUUAGCUCAUUUCCAGGGGUGGGAAUUUUUUUUUAAUAUGUGUCAUGAAUAAAGUUGUUAUUGAAA,0.0198
UAGCCCUGGUGGCAUGCGGGGAGGAAGAGGUGGCCUCAUGGAUCGUGGUGGUCCCGGUGGAAUGUUCAGAGGUGGCCGUGGUGGAGACAG,0.34
UCCUUUUUUUUUUUCUUUGAAUGUAUUUAUUUCUUGUAGUCUACUGGUGCUGUUGUGACGGAGAGCCAGACGUACAAAAACCGAGCUGGU,0.904

# Mixed results
Molecule,target,test,test system,conditions,scale,quantity,value
"PhoQ, residues 284 288 289 292 302 303 SNSSNI","PhoP, residues 12 14 15 18 19 SQCLL (Escherichia coli, UniProt P23836)","Sort-seq, measured: YFP reporter",E. coli,"PhoQ-PhoP variant library, together with: 10 µM Mg2+","reference: high Mg2+ state, higher = stronger signaling",fold induction,6.34

# Some of these lines once more (set 3):
Sequence,log2 enrichment
GUCCUGUGCUACACAUCGUAUGUACCGAAUCGGGAGGGAAAAAAAGGGUUUUUUUGGGAAAGUAUUAUGUUACGCCGUUCGGAUCUGCAC,-1.21
